Measured values collected from several papers.
A part holds a random share of what one study measured.

Block 1 — technique: aptamer microarray, sandwich; molecule type: DNA with 2'F-ANA; sample: in vitro; tested at: 200 nM; with: Cy3 exosite-II aptamer, 400 nM; reading: higher = stronger binding; sequence: GGTTGGTGTGGTTGG
Target: Prothrombin, mature alpha-thrombin (F2, Homo sapiens, UniProt P00734)
Notes: whole 15-mer aptamer, many near background
`2'F-ANA at 1 3 5 6 10 15` — result for “mean fluorescence intensity”: 46.2 a.u.
For `2'F-ANA at 1 3 6 10 13 14 15`, “mean fluorescence intensity” read 61.8 a.u.
`2'F-ANA at 1 4 9 11 12 13 14 15`: “mean fluorescence intensity” 83 a.u.
Under “mean fluorescence intensity”, `2'F-ANA at 1 2 3 4 5 6 13 14 15` is recorded as 51.1 a.u.
`2'F-ANA at 4 6 9 10 11 12 13` — result for “mean fluorescence intensity”: 169 a.u.
Under “mean fluorescence intensity”, `2'F-ANA at 1 5 6 7 9 12 13 14 15` is recorded as 45.8 a.u.
`2'F-ANA at 2 7 9 10 11 13` — result for “mean fluorescence intensity”: 119 a.u.
`2'F-ANA at 2 3 6 7 12 13` — result for “mean fluorescence intensity”: 864 a.u.
For `2'F-ANA at 4 7 8 13 15`, “mean fluorescence intensity” read 292 a.u.
`2'F-ANA at 1 3 7 9 10 11 13 14` — result for “mean fluorescence intensity”: 56.9 a.u.
`2'F-ANA at 1 2 3 4 5 7 9 11 12 14 15`: “mean fluorescence intensity” 51.9 a.u.
`2'F-ANA at 3 4 5 6 9 10 12 13 15`: “mean fluorescence intensity” 56.6 a.u.
Under “mean fluorescence intensity”, `2'F-ANA at 4 7 9 11 15` is recorded as 230 a.u.
`2'F-ANA at 1 3 5 6 8 9 12 15` — result for “mean fluorescence intensity”: 105 a.u.
For `2'F-ANA at 4 5 6 7 8 13`, “mean fluorescence intensity” read 62.5 a.u.
For `2'F-ANA at 1 5 9 12 13`, “mean fluorescence intensity” read 67.6 a.u.
For `2'F-ANA at 4 5 6 7 8 9 10 13`, “mean fluorescence intensity” read 44 a.u.
For `2'F-ANA at 5 6 7 9 10`, “mean fluorescence intensity” read 59.3 a.u.
`2'F-ANA at 2 3 4 5 8 9 14 15`: “mean fluorescence intensity” 49.6 a.u.
For `2'F-ANA at 1 2 3 4 5 9 10 11`, “mean fluorescence intensity” read 59.5 a.u.

Block 2 — technique: RNA Bind-n-Seq; molecule type: RNA; sample: in vitro; tested at: 365 nM; reference: no-protein control; reading: higher = stronger binding
Target: RNA binding protein fox-1 homolog 2, RRM domain, GST-SBP tag (RBFOX2, Homo sapiens, UniProt O43251-10, residues 100-194)
Notes: natural RNA segment, single round, ends assumed
Construct (chain): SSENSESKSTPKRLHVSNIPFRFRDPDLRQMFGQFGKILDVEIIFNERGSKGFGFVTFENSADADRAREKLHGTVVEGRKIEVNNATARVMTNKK
`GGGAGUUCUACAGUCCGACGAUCUGGAUUUCUUCUGGGAGCAGCAGAGUCCCUUGUAAAAGACUGCUUUUGUACAGAAUGCGCUAUAAAUUAUACCUUUAAGAAUGUGGGGCCUUUUUUAUGAUUUUGUAAGUUGGAAUUCUCGGGUGCCAA`: “RBNS enrichment (R)” 20.1.
`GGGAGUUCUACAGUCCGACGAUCGCAAGUAUGUAUAUAUGUGUAUGCUCAGAUUAACUUCCAUAGGUACAUAAGUGAAAGAAGUCUCAGUUCAGUGAACACAAAACUUAUUUAAAGAUGCUUUAUAUGUAGAAUGGAAUUCUCGGGUGCCAA`: “RBNS enrichment (R)” 0.58.
`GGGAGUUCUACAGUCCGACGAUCCCCAGGAGCCAAAACUCACGCUCGGGCAGCAGCAGCUGAGGCUUGAGGAAGCUGGUGUCCUAAGACACUGAAACCCAGUGCUCAUUGGAGCUGCCAGCCACAGGUUUCUAUGGAAUUCUCGGGUGCCAA`: “RBNS enrichment (R)” 0.325.
`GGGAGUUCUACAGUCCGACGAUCGUUCAAGUGAGCAAGCCAUGCCCCCAGCUGCAGUCAGAGUUGAGACCGGCUCUGUGGCUCGUAGCUGGUUCUCUGCUUGCUAGAACAUUCUAACAUUUACACUUUUGUUAUGGAAUUCUCGGGUGCCAA` — result for “RBNS enrichment (R)”: 0.39.
`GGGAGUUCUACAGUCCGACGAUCAAAAAAUAAAAACAAGAAUUUGGUCUAAGACCAUACAGCAGAUUGAUAUGCUGGCACAGAUUUGUUCAGAAGUGGACAGAGACUUACAAGGUAGAGUAUCCCAAUGAGAGUGGAAUUCUCGGGUGCCAA` — result for “RBNS enrichment (R)”: 0.599.
Under “RBNS enrichment (R)”, `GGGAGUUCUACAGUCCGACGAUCCCUGUGGAUCCCGUCAGGAGGGACUUAGUGGCUCUGCCGCCAGUGAGACUUCCCGCCGGCAGCUGUGCGCACCAAAGACUCGGGAGAACUGGAAAGGCUGUCUGGGGUCUUGGAAUUCUCGGGUGCCAA` is recorded as 0.251.
Under “RBNS enrichment (R)”, `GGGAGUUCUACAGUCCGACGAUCCUGGCAGAGGCGGCUCGGGCUGCCCAUCGUGUUUCUGCGGGGUUGAGGUGGGCUCCCUUCUUUGUAGAUGCCUUUCCUCUCGUAAUAACAACUCCUUGCCCCCAGGGCUCUGGAAUUCUCGGGUGCCAA` is recorded as 0.863.
Under “RBNS enrichment (R)”, `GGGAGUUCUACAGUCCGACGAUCUGUAAACUAAAACAAAUUGUGCAUUCCUUCCGGGGCCAUCGUCUUUGUUUUCUUUUUUGUCUUGAAUGAAUUUUAAAAGGAAAUAUAUAAUAAAAAUGUUAACCAGAAGGUGGAAUUCUCGGGUGCCAA` is recorded as 0.581.
Under “RBNS enrichment (R)”, `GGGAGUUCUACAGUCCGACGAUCCUAAGAGCCACCUGCUGCAGUUACCAUGGCAUGCUGAGUUGAUGCACCAGGUGGCAGCAGCCAUCCGUUAUUAUUUCCAAUGGAGACCUAGCCCAGGCCAAGGUAAAGUUUGGAAUUCUCGGGUGCCAA` is recorded as 23.5.

Block 3 — technique: protein-binding microarray; molecule type: double-stranded DNA, one strand shown; sample: in vitro; tested at: not given; reading: higher = stronger binding
Target: Protein C-ets-1 (ETS1, Homo sapiens, UniProt P14921, residues 1-441, K379A, full length assumed)
Notes: k-mer, scored over probes, only values ≥0.25
Target sequence (chain): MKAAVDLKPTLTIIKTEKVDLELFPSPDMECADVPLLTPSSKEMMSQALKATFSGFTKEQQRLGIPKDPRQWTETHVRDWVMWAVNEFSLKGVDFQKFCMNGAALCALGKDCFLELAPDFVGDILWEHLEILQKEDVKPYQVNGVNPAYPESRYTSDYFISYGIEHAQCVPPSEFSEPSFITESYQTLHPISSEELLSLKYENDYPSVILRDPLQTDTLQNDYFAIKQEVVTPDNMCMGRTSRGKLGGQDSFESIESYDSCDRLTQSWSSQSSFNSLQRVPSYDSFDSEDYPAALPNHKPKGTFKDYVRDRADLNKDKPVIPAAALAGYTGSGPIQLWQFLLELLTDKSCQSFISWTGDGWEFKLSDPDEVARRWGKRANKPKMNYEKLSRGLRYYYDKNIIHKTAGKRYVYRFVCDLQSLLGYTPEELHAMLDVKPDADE
The E-score of `CTTCCGCC` is reported as 0.313.
With `ACATGTTA` the E-score was 0.254.
With `GGTATACC` the E-score was 0.261.
With `ACCGGTTA` the E-score was 0.479.
The E-score of `CACCGGAA` is reported as 0.483.
With `CACGCCGG` the E-score was 0.255.
The E-score of `CGGTACAG` is reported as 0.316.
With `GTCGGTAA` the E-score was 0.337.
`GTACTACA` has an E-score of 0.258.
`CGTAACAA` gave an E-score of 0.265.
`ACCCCACC` has an E-score of 0.285.
`ACCTCCCC` has an E-score of 0.304.
`GGAGGGGA` gave an E-score of 0.366.
`CAAATACA` has an E-score of 0.279.
The E-score of `ACCGGATG` is reported as 0.437.
The E-score of `ATGTACGC` is reported as 0.276.
The E-score of `AGGGGCGG` is reported as 0.38.
For `GTCCGGAC`, the E-score was 0.337.
For `ACGGAAGT`, the E-score was 0.369.
The E-score of `GCGCGAAA` is reported as 0.264.
The E-score of `CGTCGTTC` is reported as 0.33.
With `TACAACCA` the E-score was 0.315.
With `CGGTCATC` the E-score was 0.268.
`AATCCCGG` gave an E-score of 0.396.
`GGGGCGGA` gave an E-score of 0.385.

Block 4 — technique: RNA Bind-n-Seq; molecule type: RNA; sample: in vitro; tested at: not given; reference: input RNA pool; reading: higher = stronger binding
Target: RING finger protein unkempt homolog, zinc fingers 1-6, GST-SBP tag (UNK, Homo sapiens, UniProt Q9C0B0, residues 30-357)
Notes: RNA with constant flanks, human and mouse sites, ends assumed
Residues (chain): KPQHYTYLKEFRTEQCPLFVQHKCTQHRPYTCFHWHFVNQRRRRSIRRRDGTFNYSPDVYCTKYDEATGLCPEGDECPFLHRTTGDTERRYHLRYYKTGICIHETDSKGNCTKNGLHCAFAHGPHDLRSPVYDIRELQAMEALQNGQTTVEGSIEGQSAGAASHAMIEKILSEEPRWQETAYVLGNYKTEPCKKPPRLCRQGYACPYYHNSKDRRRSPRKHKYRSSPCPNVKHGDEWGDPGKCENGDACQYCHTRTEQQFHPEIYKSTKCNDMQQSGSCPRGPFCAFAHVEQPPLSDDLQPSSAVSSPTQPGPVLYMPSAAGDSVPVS
The bound/input enrichment of `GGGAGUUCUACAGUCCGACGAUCAGUCUAUGUUUUGCACUGCUAACUAUGAUGAGGGUUUAAAAAAAUGCUUCUUCAGGGUCCUUUCACUGAGGACCUAUGCAGUCUACUUAAUGCUGUGAAUUACAUUUUUCAAAUGUUUAACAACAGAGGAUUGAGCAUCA` is reported as 0.154 ratio.
`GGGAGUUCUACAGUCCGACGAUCUUUUAAGUGUGUCAUUGCCCUCCCCUGUGGUCAUCUGGGUACCCCUGCCCAUCCAUUGUUUUUAGAACAACCCUAACUGCUUCGGAAAACACUCCCAAGAACUCUAGUGUUGGUUUGUCUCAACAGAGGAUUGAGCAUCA` has a bound/input enrichment of 0.731 ratio.
`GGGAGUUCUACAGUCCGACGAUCCUGCUCCUCUCCUGGGCGGCGGGGCUGGGAGGUCAGUAUGGAAAUCCUUUAAAUAAAUAUAUUAGACAUUAUGAAGGAUUAUCUUACAAUGUGGAUUCAUUACACCAAAAACACCAGCGUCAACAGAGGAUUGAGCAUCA` has a bound/input enrichment of 5.93 ratio.
`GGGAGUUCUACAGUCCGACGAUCUUCGCCUGCGCCAAGCUCGCCUGCACCCCCUCUCUGAUCCGAGCUGGAUCCAGAGUUGCAUACAGACCAAUUUCUGCAUCAGUGUUAUCUCGACCAGAGGCUAGUAGGACUGGAGAGGGCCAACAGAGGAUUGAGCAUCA` has a bound/input enrichment of 0.137 ratio.
`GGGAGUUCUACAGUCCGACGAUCCAAUUAUCCUUGAAGUUUGAAAGGUGUUUAGAUUCAGAAGUUGUCACCUUUGAAAUUUUGUCUGAUGACUACUCAAAGAUUGUCUUCUUACAUAAUGAUAGAUACAUUGAAUUUCAUUCGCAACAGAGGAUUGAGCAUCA` gave a bound/input enrichment of 0.248 ratio.
For `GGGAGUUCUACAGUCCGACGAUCUCUCGGGAACAGCUUGCGAUUGCAGAGUUUGCAAGAUCACUUCUUGUUAUUCCCAAUACACUAGCAGUUAAUGCUGCCCAGGACUCCACAGAUCUGGUUGCAAAAUUAAGAGCUUUUCAUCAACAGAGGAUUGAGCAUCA`, the bound/input enrichment was 0.12 ratio.
For `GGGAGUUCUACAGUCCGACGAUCUCUCCGAAAUCUGAUAUUUCUCCACUCACCCCACGAGAGUCCUCACCUUUAUAUUCACCUGGCUUUUCAGAUUCUACCUCUGCAGCUAAAGAGACUGCAGCAGCUCACCAAGCCUCCUCUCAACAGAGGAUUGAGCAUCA`, the bound/input enrichment was 0.427 ratio.
For `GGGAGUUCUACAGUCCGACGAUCGUGCAGCUGACCGUGCAAUACCGAAUGAACAGGAAGAUUAUGUCCCUGAGCAACAAGCUCACAUACGCAGGGAAACUGGAGUGUGGGUCAGACCGAGUGGCCAACGCAGUGCUAGCCCUGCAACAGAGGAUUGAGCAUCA`, the bound/input enrichment was 0.0682 ratio.

A few entries again (block 1):
Under “mean fluorescence intensity”, `2'F-ANA at 1 5 6 7 9 12 13 14 15` is recorded as 45.8 a.u.
`2'F-ANA at 2 7 9 10 11 13` — result for “mean fluorescence intensity”: 119 a.u.
`2'F-ANA at 2 3 6 7 12 13` — result for “mean fluorescence intensity”: 864 a.u.
For `2'F-ANA at 4 7 8 13 15`, “mean fluorescence intensity” read 292 a.u.
`2'F-ANA at 1 3 7 9 10 11 13 14` — result for “mean fluorescence intensity”: 56.9 a.u.
`2'F-ANA at 1 2 3 4 5 7 9 11 12 14 15`: “mean fluorescence intensity” 51.9 a.u.
`2'F-ANA at 3 4 5 6 9 10 12 13 15`: “mean fluorescence intensity” 56.6 a.u.
Under “mean fluorescence intensity”, `2'F-ANA at 4 7 9 11 15` is recorded as 230 a.u.
`2'F-ANA at 1 3 5 6 8 9 12 15` — result for “mean fluorescence intensity”: 105 a.u.
